{"data": "Published values gathered from unrelated publications", "KCNH2": "Voltage-gated inwardly rectifying potassium channel KCNH2 (KCNH2, Homo sapiens, UniProt Q12809)", "CYP2B6": "Cytochrome P450 2B6 (CYP2B6, Homo sapiens, UniProt P20813)", "note": "Each line is one published result; not all experiments were run side by side. ± gives the spread as reported.", "sequence of UniProt Q12809 (whole entry, looked up)": "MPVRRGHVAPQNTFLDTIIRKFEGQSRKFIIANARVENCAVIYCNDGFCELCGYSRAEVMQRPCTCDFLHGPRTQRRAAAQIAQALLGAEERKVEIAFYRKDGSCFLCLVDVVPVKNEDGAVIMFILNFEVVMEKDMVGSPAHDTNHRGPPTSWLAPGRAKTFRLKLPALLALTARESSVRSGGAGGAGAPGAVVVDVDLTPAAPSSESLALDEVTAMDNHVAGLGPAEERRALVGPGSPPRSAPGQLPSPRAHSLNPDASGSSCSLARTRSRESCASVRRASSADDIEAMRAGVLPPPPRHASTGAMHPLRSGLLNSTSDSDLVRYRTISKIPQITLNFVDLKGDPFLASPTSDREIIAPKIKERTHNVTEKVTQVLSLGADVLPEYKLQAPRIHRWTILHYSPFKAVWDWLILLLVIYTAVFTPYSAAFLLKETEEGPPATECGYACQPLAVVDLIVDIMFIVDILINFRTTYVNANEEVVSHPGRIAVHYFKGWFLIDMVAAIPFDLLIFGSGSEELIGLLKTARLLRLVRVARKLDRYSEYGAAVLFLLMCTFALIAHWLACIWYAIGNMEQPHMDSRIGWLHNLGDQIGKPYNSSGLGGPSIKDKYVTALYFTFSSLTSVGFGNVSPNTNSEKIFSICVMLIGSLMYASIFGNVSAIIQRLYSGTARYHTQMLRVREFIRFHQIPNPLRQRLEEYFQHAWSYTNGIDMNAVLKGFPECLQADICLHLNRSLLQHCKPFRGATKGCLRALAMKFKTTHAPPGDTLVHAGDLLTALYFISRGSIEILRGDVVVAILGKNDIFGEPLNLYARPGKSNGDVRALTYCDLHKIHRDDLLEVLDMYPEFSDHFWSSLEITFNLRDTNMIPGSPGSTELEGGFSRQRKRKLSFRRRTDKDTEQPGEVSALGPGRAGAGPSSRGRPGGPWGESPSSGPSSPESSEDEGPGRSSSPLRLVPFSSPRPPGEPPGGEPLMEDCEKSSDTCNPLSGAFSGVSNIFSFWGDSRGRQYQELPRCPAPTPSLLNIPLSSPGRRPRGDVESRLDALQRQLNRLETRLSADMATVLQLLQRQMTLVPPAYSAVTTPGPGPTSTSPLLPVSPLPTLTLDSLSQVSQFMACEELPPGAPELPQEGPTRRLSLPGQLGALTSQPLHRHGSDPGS", "sequence of UniProt P20813 (whole entry, looked up)": "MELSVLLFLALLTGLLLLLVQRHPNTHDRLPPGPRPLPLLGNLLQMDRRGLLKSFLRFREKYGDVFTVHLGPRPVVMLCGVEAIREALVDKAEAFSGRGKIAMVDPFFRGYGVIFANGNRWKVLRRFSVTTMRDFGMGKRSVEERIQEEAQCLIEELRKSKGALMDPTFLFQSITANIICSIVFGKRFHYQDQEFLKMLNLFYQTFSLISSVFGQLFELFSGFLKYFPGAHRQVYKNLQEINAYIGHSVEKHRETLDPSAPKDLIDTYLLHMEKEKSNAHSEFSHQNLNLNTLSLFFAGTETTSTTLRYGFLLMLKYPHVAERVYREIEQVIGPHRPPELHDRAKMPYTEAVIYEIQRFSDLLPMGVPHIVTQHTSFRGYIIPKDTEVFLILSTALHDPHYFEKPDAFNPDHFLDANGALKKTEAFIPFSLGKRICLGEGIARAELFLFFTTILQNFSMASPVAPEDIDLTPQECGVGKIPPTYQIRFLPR", "sequence of UniProt P06133 (whole entry, looked up)": "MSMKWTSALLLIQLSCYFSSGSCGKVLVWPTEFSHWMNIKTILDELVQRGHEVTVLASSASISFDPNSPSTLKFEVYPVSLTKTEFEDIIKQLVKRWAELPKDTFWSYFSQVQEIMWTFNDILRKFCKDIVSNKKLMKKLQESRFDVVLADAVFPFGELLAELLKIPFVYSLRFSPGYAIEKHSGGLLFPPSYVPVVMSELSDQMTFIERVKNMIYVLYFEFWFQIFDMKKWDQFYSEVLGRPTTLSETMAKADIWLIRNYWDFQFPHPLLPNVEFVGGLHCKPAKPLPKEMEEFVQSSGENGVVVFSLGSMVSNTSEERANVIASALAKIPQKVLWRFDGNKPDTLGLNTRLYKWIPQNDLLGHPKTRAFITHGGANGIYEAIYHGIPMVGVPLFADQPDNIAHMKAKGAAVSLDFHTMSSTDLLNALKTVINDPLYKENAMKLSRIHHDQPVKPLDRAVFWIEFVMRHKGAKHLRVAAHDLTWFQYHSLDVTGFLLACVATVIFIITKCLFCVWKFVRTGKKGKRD"}
{"SMILES": "CC[C@H](C)[C@H](NC(=O)[C@H](CC(=O)O)NC(=O)[C@@H](NC(=O)[C@@H]1CCCN1C(=O)[C@@H](N)CCCNC(=N)N)[C@@H](C)O)C(=O)N[C@@H](CCCCN)C(=O)N[C@H]1CSSC[C@@H]2NC(=O)[C@H](CCCCNC(=O)CCc3cn(CCOCCOCCOCCOCCOCCNC(=O)CCCCC[N+]4=C(/C=C/C=C/C=C5/N(C)c6ccccc6C5(C)C)C(C)(C)c5ccccc54)nn3)NC(=O)CNC(=O)[C@H](CC(N)=O)NC(=O)[C@H]([C@@H](C)O)NC(=O)[C@H](CCCCN)NC(=O)CNC(=O)[C@H](Cc3ccccc3)NC(=O)[C@H](CCCNC(=N)N)NC(=O)[C@H](CO)NC(=O)[C@H](CCCCN)NC(=O)[C@@H]3CSSC[C@@H](C(=O)N[C@@H](Cc4ccccc4)C(=O)O)NC(=O)[C@H](CC(=O)O)NC(=O)[C@H](CSSC[C@H](NC(=O)[C@H](CCC(N)=O)NC(=O)[C@H](Cc4ccc(O)cc4)NC(=O)[C@H](CO)NC(=O)[C@H](CCC(=O)O)NC(=O)[C@H](CO)NC1=O)C(=O)N[C@@H](Cc1ccccc1)C(=O)N1CCC[C@H]1C(=O)N[C@@H](C(C)C)C(=O)N3)NC(=O)[C@H](Cc1ccccc1)NC(=O)CNC(=O)[C@H](CC(N)=O)NC(=O)[C@H](C(C)C)NC2=O", "target": "KCNH2", "assay": "ion current, two-electrode voltage clamp", "test system": "Xenopus laevis oocytes", "measurement": "Hill coefficient", "result": "0.7 ± 0.1"}
{"SMILES": "CCC1CN2CCC3(O)C(=Nc4cccc(OC)c43)C2CC1C(=COC)C(=O)OC (stereo not drawn)", "target": "UDP-glucuronosyltransferase, rat", "assay": "4-MU glucuronidation, inhibitor", "test system": "rat liver microsomes", "setting": "100 µM, 30 min, pH 7.4, together with: 4-methylumbelliferone 100 µM", "measurement": "inhibition", "result": "46%"}
{"SMILES": "CC[C@H](C)[C@H](NC(=O)[C@H](CC(=O)O)NC(=O)[C@@H](NC(=O)[C@@H]1CCCN1C(=O)[C@@H](N)CCCNC(=N)N)[C@@H](C)O)C(=O)N[C@@H](CCCCN)C(=O)N[C@H]1CSSC[C@@H]2NC(=O)[C@H](CCCNC(=N)N)NC(=O)CNC(=O)[C@H](CC(N)=O)NC(=O)[C@H]([C@@H](C)O)NC(=O)[C@H](CCCCN)NC(=O)CNC(=O)[C@H](Cc3ccccc3)NC(=O)[C@H](CCCNC(=N)N)NC(=O)[C@H](CO)NC(=O)[C@H](CCCCN)NC(=O)[C@@H]3CSSC[C@@H](C(=O)N[C@@H](Cc4ccccc4)C(=O)O)NC(=O)[C@H](CC(=O)O)NC(=O)[C@H](CSSC[C@H](NC(=O)[C@H](CCC(N)=O)NC(=O)[C@H](Cc4ccc(O)cc4)NC(=O)[C@H](CO)NC(=O)[C@H](CCC(=O)O)NC(=O)[C@H](CO)NC1=O)C(=O)N[C@@H](Cc1ccccc1)C(=O)N1CCC[C@H]1C(=O)N[C@@H](C(C)C)C(=O)N3)NC(=O)[C@H](Cc1ccccc1)NC(=O)CNC(=O)[C@H](CC(N)=O)NC(=O)[C@H](C(C)C)NC2=O", "target": "KCNH2", "assay": "ion current, inhibitor, two-electrode voltage clamp", "setting": "pH 7.4, oocytes", "measurement": "IC50", "result": "12.2 nM"}
{"SMILES": "CCCCCc1cc(O)c2c(c1)OC(C)(C)C1CCC(C)=CC21 (single isomer, unassigned; (-))", "target": "UDP-glucuronosyltransferase 2B4 (UGT2B4, Homo sapiens, UniProt P06133)", "assay": "codeine glucuronidation, inhibitor", "test system": "HEK293 microsomes", "setting": "together with: codeine", "how to read": "baseline: UGT2B4 over UGT2B7", "measurement": "IC50 ratio", "result": "~3.6 fold"}
{"SMILES": "CCCCCc1cc(O)c2c(c1)OC(C)(C)C1CCC(C)=CC21 (single isomer, unassigned; (-))", "target": "CYP2B6", "assay": "inhibitor", "test system": "HEK293 overexpressing CYP2B6, recombinant microsomes", "setting": "concentration not given, together with: efavirenz", "measurement": "inhibition", "result": "inhibited"}
{"SMILES": "CN(C)CC1CCCCC1(O)c1cccc(O)c1 (stereo not drawn)", "target": "P-glycoprotein", "test system": "Caco-2 TC7", "setting": "10 µM, 3 h, pH 6.8 apical, 7.4 basolateral, together with: cyclosporin A 10 µM", "measurement": "Papp B to A", "result": "15.1 ± 0.5 ×10⁻⁶ cm/s"}
{"SMILES": "CCOC(=O)C1C(OC(c2ccc(Cl)cc2)c2ccc(Cl)cc2)CC2CCC1N2C (single isomer, unassigned)", "target": "KCNH2", "assay": "ligand displacement, radioligand", "measurement": "Ki", "result": "287 nM"}
{"SMILES": "CCCCCc1cc(O)c2c(c1)OC(C)(C)C1CCC(CO)=CC21 (stereo not drawn)", "target": "CYP2B6", "assay": "enzyme activity, inhibitor", "test system": "microsomes of overexpressing HEK293 cells", "setting": "concentration not given, pH 7.4, together with: efavirenz", "measurement": "inhibition", "result": "inhibited"}
{"SMILES": "CC[C@H](C)[C@H](NC(=O)[C@H](CC(=O)O)NC(=O)[C@@H](NC(=O)[C@@H]1CCCN1C(=O)[C@H](CCCNC(=N)N)NC(=O)CCCCCCCCc1cn(CCOCCOCCOCCOCCOCCNC(=O)CCCCC[N+]2=C(/C=C/C=C/C=C3/N(C)c4ccccc4C3(C)C)C(C)(C)c3ccccc32)nn1)[C@@H](C)O)C(=O)N[C@@H](CCCCN)C(=O)N[C@H]1CSSC[C@@H]2NC(=O)[C@H](CCCNC(=N)N)NC(=O)CNC(=O)[C@H](CC(N)=O)NC(=O)[C@H]([C@@H](C)O)NC(=O)[C@H](CCCCN)NC(=O)CNC(=O)[C@H](Cc3ccccc3)NC(=O)[C@H](CCCNC(=N)N)NC(=O)[C@H](CO)NC(=O)[C@H](CCCCN)NC(=O)[C@@H]3CSSC[C@@H](C(=O)N[C@@H](Cc4ccccc4)C(=O)O)NC(=O)[C@H](CC(=O)O)NC(=O)[C@H](CSSC[C@H](NC(=O)[C@H](CCC(N)=O)NC(=O)[C@H](Cc4ccc(O)cc4)NC(=O)[C@H](CO)NC(=O)[C@H](CCC(=O)O)NC(=O)[C@H](CO)NC1=O)C(=O)N[C@@H](Cc1ccccc1)C(=O)N1CCC[C@H]1C(=O)N[C@@H](C(C)C)C(=O)N3)NC(=O)[C@H](Cc1ccccc1)NC(=O)CNC(=O)[C@H](CC(N)=O)NC(=O)[C@H](C(C)C)NC2=O", "target": "KCNH2", "assay": "ion current, two-electrode voltage clamp", "test system": "Xenopus laevis oocytes", "measurement": "Hill coefficient", "result": "0.8 ± 0.1"}
{"note": "Repeated from above:"}
{"SMILES": "CCC1CN2CCC3(O)C(=Nc4cccc(OC)c43)C2CC1C(=COC)C(=O)OC (stereo not drawn)", "target": "UDP-glucuronosyltransferase, rat", "assay": "4-MU glucuronidation, inhibitor", "test system": "rat liver microsomes", "setting": "100 µM, 30 min, pH 7.4, together with: 4-methylumbelliferone 100 µM", "measurement": "inhibition", "result": "46%"}
